Results pooled from the literature.
Parts stem from different laboratories: compare values within a part only.
UniProt P42336, sequence (whole entry, unmodified, looked up): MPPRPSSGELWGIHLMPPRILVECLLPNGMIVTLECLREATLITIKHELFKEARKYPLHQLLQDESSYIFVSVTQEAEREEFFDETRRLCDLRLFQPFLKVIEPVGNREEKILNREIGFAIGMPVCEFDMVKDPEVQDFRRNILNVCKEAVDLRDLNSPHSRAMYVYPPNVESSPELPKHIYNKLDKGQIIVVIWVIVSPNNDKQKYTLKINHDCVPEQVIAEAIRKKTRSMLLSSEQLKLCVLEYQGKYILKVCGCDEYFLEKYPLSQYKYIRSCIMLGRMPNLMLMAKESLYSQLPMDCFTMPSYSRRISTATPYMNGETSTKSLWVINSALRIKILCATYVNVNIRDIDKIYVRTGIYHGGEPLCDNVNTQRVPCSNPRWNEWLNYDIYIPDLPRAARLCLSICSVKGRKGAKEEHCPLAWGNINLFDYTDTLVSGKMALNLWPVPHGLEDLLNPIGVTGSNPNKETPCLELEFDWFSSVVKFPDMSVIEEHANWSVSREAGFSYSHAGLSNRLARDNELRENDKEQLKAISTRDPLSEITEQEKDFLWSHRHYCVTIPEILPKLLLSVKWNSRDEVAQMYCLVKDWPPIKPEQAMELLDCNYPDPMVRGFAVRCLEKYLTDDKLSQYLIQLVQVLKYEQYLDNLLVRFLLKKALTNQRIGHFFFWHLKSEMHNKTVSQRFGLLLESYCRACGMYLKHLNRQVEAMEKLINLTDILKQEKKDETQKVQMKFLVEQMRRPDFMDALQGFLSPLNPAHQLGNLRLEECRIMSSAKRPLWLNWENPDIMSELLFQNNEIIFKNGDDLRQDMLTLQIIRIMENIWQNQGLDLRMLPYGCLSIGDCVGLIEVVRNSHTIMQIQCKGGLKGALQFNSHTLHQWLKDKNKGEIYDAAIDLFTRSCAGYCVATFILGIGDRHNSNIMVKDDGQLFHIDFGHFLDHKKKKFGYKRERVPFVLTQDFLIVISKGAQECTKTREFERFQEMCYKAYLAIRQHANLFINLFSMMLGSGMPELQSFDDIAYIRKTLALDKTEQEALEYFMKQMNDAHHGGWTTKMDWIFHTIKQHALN
UniProt Q02763, sequence (whole entry, looked up): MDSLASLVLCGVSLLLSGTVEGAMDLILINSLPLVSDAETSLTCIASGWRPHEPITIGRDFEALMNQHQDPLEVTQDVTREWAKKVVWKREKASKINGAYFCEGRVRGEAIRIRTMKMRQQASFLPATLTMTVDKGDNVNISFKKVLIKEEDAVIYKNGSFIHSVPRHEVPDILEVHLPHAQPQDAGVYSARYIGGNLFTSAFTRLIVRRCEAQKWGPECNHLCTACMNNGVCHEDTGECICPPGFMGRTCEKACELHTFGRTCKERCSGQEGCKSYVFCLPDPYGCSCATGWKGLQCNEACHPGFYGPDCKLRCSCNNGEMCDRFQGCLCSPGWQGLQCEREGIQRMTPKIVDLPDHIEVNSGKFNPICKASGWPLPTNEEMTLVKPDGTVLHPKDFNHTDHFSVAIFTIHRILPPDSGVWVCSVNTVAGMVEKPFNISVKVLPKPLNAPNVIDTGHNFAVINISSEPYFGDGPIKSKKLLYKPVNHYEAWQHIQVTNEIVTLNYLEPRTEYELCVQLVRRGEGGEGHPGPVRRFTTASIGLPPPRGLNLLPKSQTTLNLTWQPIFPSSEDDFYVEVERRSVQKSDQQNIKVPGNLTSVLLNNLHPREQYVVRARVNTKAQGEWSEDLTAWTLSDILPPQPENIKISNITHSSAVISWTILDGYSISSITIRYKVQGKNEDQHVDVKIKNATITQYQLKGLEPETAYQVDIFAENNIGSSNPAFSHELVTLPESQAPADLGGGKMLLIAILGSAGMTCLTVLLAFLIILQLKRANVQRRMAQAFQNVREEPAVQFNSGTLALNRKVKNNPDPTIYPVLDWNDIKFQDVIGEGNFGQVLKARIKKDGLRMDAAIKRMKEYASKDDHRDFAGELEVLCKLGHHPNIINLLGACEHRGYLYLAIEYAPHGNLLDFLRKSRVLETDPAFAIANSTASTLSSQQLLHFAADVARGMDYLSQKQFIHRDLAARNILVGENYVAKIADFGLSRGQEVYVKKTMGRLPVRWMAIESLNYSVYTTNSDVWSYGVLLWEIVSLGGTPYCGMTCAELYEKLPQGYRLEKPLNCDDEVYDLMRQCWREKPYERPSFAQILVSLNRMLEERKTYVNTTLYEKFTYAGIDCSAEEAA
UniProt Q8NFD2, sequence (whole entry, looked up): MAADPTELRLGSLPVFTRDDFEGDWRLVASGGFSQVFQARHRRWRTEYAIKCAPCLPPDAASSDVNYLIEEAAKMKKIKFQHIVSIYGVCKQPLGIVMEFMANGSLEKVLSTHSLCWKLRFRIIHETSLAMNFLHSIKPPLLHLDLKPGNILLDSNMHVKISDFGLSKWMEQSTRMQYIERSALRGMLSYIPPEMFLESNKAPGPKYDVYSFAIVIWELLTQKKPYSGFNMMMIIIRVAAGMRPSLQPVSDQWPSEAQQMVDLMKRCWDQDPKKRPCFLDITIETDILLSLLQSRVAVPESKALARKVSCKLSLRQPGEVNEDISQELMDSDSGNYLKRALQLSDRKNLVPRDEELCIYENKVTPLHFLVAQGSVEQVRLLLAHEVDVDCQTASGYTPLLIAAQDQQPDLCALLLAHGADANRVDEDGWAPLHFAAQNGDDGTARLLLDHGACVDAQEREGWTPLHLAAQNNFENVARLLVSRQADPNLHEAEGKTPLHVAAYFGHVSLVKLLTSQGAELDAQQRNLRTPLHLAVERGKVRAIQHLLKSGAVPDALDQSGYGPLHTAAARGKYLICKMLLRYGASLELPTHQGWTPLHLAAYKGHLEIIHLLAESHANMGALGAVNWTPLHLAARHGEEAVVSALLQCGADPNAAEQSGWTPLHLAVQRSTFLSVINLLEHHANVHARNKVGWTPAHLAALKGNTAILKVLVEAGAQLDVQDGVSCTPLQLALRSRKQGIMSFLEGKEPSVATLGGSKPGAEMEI
UniProt P42338, sequence (whole entry, looked up): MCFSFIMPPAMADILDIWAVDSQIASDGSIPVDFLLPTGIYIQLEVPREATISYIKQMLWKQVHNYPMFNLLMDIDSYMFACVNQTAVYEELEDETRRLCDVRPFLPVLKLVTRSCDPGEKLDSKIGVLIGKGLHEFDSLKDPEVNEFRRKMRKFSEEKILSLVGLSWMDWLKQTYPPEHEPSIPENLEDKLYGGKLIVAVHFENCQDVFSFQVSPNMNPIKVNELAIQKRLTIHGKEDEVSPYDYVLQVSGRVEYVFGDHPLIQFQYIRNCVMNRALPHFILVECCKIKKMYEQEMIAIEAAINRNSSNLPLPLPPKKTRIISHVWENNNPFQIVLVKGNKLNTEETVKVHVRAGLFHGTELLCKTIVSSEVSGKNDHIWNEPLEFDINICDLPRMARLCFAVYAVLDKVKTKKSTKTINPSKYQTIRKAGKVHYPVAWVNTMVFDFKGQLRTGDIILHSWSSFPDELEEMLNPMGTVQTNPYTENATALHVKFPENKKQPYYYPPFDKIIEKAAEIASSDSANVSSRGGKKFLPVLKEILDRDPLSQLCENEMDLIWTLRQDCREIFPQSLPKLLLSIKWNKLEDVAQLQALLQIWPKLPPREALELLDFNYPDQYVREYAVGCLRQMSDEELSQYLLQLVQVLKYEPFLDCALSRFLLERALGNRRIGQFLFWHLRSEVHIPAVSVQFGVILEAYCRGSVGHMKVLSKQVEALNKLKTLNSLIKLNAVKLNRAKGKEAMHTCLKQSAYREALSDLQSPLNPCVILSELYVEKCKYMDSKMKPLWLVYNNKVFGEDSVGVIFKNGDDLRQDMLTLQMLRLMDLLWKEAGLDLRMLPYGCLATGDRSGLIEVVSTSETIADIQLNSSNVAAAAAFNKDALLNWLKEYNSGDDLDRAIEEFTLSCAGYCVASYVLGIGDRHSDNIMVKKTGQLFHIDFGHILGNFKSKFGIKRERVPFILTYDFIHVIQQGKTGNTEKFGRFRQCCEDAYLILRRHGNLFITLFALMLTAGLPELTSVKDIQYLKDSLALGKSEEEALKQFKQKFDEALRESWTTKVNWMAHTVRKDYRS
UniProt Q13882, sequence (whole entry, looked up): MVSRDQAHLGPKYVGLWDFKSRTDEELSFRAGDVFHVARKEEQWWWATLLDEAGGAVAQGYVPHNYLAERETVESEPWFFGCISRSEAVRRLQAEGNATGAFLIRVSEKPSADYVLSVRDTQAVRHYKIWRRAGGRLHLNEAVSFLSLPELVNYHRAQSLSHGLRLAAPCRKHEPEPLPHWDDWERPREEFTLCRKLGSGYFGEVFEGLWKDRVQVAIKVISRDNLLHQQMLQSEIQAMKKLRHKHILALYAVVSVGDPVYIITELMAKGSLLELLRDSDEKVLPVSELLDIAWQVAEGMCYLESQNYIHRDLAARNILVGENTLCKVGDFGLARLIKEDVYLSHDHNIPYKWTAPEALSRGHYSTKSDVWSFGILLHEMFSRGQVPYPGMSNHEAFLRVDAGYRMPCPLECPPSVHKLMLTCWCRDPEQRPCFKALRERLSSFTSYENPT

Set 1
SMILES: N#CC1(c2ccccn2)CCN(Cc2cc(C(=O)N3CCCC3)c(=O)n3ccccc23)CC1
Tested at: 1 µM
It gave 90% for remaining binding (Ribosomal protein S6 kinase alpha-5, C-terminal kinase domain (RPS6KA5, Homo sapiens, UniProt O75582); cell-free assay, competition with immobilised ligand).
It gave 89% for remaining binding (DAPK1 (Homo sapiens, UniProt P53355); cell-free assay, competition with immobilised ligand).
For SRPK3 (Homo sapiens, UniProt Q9UPE1); cell-free assay, competition with immobilised ligand: remaining binding read 82%.
It gave 75% for remaining binding (ACVR2B (Homo sapiens, UniProt Q13705); cell-free assay, competition with immobilised ligand).
The remaining binding was 100% (EPHB6 (Homo sapiens, UniProt O15197); cell-free assay, competition with immobilised ligand).
EGFR (Homo sapiens, UniProt P00533, G719C); cell-free assay, competition with immobilised ligand — remaining binding: 80%.
For STK35 (Homo sapiens, UniProt Q8TDR2); cell-free assay, competition with immobilised ligand: remaining binding read 96%.
For BRAF (Homo sapiens, UniProt P15056); cell-free assay, competition with immobilised ligand: remaining binding read 100%.
CDK5 (Homo sapiens, UniProt Q00535); cell-free assay, competition with immobilised ligand — remaining binding: 92%.
The remaining binding was 79% (ANKK1 (Homo sapiens, UniProt Q8NFD2); cell-free assay, competition with immobilised ligand).
FES (Homo sapiens, UniProt P07332); cell-free assay, competition with immobilised ligand — remaining binding: 99%.
The remaining binding was 100% (PI4KB (Homo sapiens, UniProt Q9UBF8); cell-free assay, competition with immobilised ligand).
For PIP5K1A (Homo sapiens, UniProt Q99755); cell-free assay, competition with immobilised ligand: remaining binding read 100%.
CSNK1G1 (Homo sapiens, UniProt Q9HCP0); cell-free assay, competition with immobilised ligand — remaining binding: 79%.
For PIK3CA (Homo sapiens, UniProt P42336, E545A); cell-free assay, competition with immobilised ligand: remaining binding read 78%.
It gave 76% for remaining binding (MAPK4 (Homo sapiens, UniProt P31152); cell-free assay, competition with immobilised ligand).
Tyrosine-protein kinase ABL1, phosphorylated (ABL1, Homo sapiens, UniProt P00519, F317I); binding — remaining binding: 75%.
The remaining binding was 100% (PIK3CB (Homo sapiens, UniProt P42338); cell-free assay, competition with immobilised ligand).
The remaining binding was 85% (TEK (Homo sapiens, UniProt Q02763); cell-free assay, competition with immobilised ligand).
The remaining binding was 82% (PTK6 (Homo sapiens, UniProt Q13882); cell-free assay, competition with immobilised ligand).
It gave 88% for remaining binding (IGF1R (Homo sapiens, UniProt P08069); cell-free assay, competition with immobilised ligand).
For PIK3CA (Homo sapiens, UniProt P42336, E545K); cell-free assay, competition with immobilised ligand: remaining binding read 76%.
It gave 72% for remaining binding (GSK3A (Homo sapiens, UniProt P49840); cell-free assay, competition with immobilised ligand).
It gave 78% for remaining binding (PRPF4B (Homo sapiens, UniProt Q13523); cell-free assay, competition with immobilised ligand).
It gave 93% for remaining binding (PAK5 (Homo sapiens, UniProt Q9P286); cell-free assay, competition with immobilised ligand).

Set 2
Target: cGMP-dependent protein kinase 1 (PRKG1, Homo sapiens, UniProt Q13976)
Observed: enzyme activity
Mode: inhibitor
Tested at: 0.5 µM
Reference: control
Construct (Q13976 1-671): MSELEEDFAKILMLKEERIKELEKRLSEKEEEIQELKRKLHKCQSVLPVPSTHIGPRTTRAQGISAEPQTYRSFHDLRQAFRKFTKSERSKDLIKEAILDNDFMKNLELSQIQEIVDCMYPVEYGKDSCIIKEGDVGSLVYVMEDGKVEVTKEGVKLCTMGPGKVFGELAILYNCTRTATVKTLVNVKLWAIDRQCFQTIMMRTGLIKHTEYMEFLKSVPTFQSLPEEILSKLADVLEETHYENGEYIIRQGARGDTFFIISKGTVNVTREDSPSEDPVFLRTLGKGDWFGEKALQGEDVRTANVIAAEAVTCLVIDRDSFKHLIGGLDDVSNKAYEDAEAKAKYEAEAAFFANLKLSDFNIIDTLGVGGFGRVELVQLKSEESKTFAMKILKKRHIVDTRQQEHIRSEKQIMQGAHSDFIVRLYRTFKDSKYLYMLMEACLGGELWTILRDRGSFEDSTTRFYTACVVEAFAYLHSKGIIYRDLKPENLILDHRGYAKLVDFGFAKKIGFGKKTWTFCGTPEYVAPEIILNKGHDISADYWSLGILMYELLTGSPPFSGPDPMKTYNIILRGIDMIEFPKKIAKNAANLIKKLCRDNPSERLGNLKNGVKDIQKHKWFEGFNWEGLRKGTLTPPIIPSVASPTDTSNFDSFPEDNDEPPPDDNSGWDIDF
`Nc1nc(Nc2ccc(S(N)(=O)=O)cc2)nn1C(=S)Nc1c(F)cccc1F` gave a remaining activity of 91.3%.
The remaining activity of `Clc1ccc(Nc2nnc(Cc3ccncc3)c3ccccc23)cc1` is reported as 97.2%.
`CCN(CC)CCCCN1c2ccccc2Oc2ccc(Cl)cc21` gave a remaining activity of 98.8%.
`O=c1c(-c2ccc(F)cc2)c(-c2ccncc2)[nH]n1-c1ccc(Cl)cc1` gave a remaining activity of 95.6%.
`O=C1c2ccccc2-c2nc3nnnn3nc21` gave a remaining activity of 109%.
`N#C/C(=C(/N)SC1C=CC=CC1)c1cccc(C(O)c2ccncc2)c1` (stereo not shown) has a remaining activity of 104%.
For `CC(C)(C)c1nc2c3cc[nH]c(=O)c3c3cc(F)ccc3c2[nH]1`, the remaining activity was 40.2%.
With `O=C(O)/C=C/c1cc(Br)c(Br)c(Br)c1Br` the remaining activity was 78.9%.
With `CC(C)N(CCC(=O)c1ccc2ccccc2c1)Cc1ccccc1` the remaining activity was 101%.
`O=C(c1ccccc1)c1ccc(N2CCOCC2)cc1O` gave a remaining activity of 96.4%.
`N#CC(c1ccnc(NCCc2cccnc2)n1)c1nc2ccccc2s1` (stereo not shown) gave a remaining activity of 97.5%.
With `CNc1cc2c(Nc3cccc(Br)c3)ncnc2cn1` the remaining activity was 92.7%.
`NC(=O)c1cccc(-c2cc(Nc3ccc(OC(F)(F)F)cc3)ncn2)c1` gave a remaining activity of 98.4%.
The remaining activity of `C[C@@H](N)[C@H]1CC[C@H](C(=O)Nc2ccncc2)CC1` is reported as 73%.
`O=Nc1c(-c2c(O)[nH]c3ccccc23)[nH]c2ccccc12` has a remaining activity of 86%.
With `CCCCc1c(-c2ccc(O)cc2)[nH]c2nccnc12` the remaining activity was 94.5%.
For `c1cc(-c2cnn3cc(-c4ccc(OCCN5CCCCC5)cc4)cnc23)ccn1`, the remaining activity was 57.6%.
For `NC(=O)c1ccc(-c2nc(-c3ccc4c(c3)OCCO4)c(-c3ccccn3)[nH]2)cc1`, the remaining activity was 95%.
With `COc1cc2c(Nc3ccc(Br)cc3F)ncnc2cc1OCC1CCN(C)CC1` the remaining activity was 96.6%.
`FC(F)(F)c1ccc(/C=C/c2nc(COc3ccc(CCCCn4ccnn4)cc3)co2)cc1` gave a remaining activity of 75.9%.
The remaining activity of `CC(C)n1cnc2c(Nc3cccc(Cl)c3)nc(NCCO)nc21` is reported as 92.2%.
The remaining activity of `O=C1NC(=O)/C(=C/c2ccc3c(c2)OC(F)(F)O3)S1` is reported as 95.6%.
For `COc1cc2c(N3CCN(C(=O)Nc4ccc(OC(C)C)cc4)CC3)ncnc2cc1OCCCN1CCCCC1`, the remaining activity was 82.5%.

Set 3
Observed: AlphaScreen signal
Method: AlphaScreen counter screen
Medium: His6 peptide without bromodomain
Tested at: 50 µM
Notes: assay interference check
The inhibition of `Cc1ccc(-n2nc(C(C)(C)C)cc2NC(=O)Nc2ccc(OCCN3CCOCC3)c3ccccc23)cc1` is reported as 42.4%.
The inhibition of `Cc1cc(Nc2cc(N3CCN(C)CC3)nc(Sc3ccc(NC(=O)C4CC4)cc3)n2)[nH]n1` is reported as 27.2%.
With `Clc1ccc(Nc2nccn3c(-c4ccsc4)cnc23)cc1` the inhibition was 36.4%.
For `Cc1nc(N)sc1-c1csc(Nc2ccc(N)cc2)n1`, the inhibition was 89.7%.
For `Clc1ccc(CNc2cncc(-c3ccsc3)c2)cc1`, the inhibition was 8.8%.
`c1ccc(-c2n[nH]c3c2oc2ccccc23)cc1` has an inhibition of 11.8%.
The inhibition of `Cn1cc(C2=C(c3ccc(Cl)cc3Cl)C(=O)NC2=O)c2ccccc21` is reported as 16.4%.
The inhibition of `O=C(NCCCNc1nc(Nc2cccc(NC(=O)N3CCCC3)c2)ncc1I)c1cccs1` is reported as 15.6%.
`COc1ccc(COc2ccc(Cc3cnc(N)nc3N)cc2OC)cc1` gave an inhibition of 24.2%.
With `N#CC(=Cc1ccc[nH]1)c1nc2ccc(C(F)(F)F)cc2s1` the inhibition was 32.3%.
The inhibition of `Nc1nc(Nc2ccc(Cl)c(Cl)c2)sc1C(=O)c1ccc(F)cc1` is reported as 43.6%.
`CNC(=O)c1cc(Oc2ccc(NC(=O)Nc3cc(C(C)(C)C)nn3-c3ccc4ncccc4c3)c(F)c2)ccn1` has an inhibition of 27.6%.
With `CCc1c(O)[nH]c2nc3ccccc3n2c1=O` the inhibition was -0.6%.
With `COc1ccc(Nc2nc(N)nc3[nH]cnc23)cc1OC` the inhibition was 12.7%.
The inhibition of `Br.CC(=O)c1cccc(Nc2nc(-c3c(C)nc4ccccn34)cs2)c1` is reported as 9.3%.
The inhibition of `O=C(CCCN1CC=C(n2c(=O)[nH]c3ccccc32)CC1)c1ccc(F)cc1` is reported as 33.1%.
`CC(=O)O.Cn1cc(C2=C(c3cn(CCCN)c4ccccc34)C(=O)NC2=O)c2ccccc21` gave an inhibition of 93.7%.
The inhibition of `CCc1cc(-c2n[nH]c(C)c2-c2ccc3c(c2)OCCO3)c(O)cc1O` is reported as 63.1%.
For `COc1cc2ncnc(Nc3cccc(O)c3)c2cc1OC.Cl`, the inhibition was 6.35%.
With `O=c1cc(N2CCOCC2)oc2c(-c3ccccc3)cccc12` the inhibition was 12.7%.

Set 4
Target: Calcium/calmodulin-dependent protein kinase type II subunit alpha (CAMK2A, Homo sapiens, UniProt Q9UQM7)
UniProt Q9UQM7, sequence (whole entry, looked up): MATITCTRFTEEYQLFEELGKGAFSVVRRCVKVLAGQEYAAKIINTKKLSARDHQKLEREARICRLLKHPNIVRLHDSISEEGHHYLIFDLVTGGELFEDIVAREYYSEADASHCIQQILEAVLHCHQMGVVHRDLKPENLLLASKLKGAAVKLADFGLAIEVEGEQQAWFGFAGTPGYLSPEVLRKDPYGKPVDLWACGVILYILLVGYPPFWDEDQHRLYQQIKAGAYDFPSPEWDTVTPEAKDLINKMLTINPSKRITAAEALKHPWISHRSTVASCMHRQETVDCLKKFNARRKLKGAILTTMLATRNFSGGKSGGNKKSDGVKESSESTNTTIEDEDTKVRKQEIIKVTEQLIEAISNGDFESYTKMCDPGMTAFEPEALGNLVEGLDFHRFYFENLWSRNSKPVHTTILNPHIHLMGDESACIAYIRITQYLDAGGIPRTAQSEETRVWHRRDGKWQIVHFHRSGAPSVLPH
Observed: enzyme activity
Mode: inhibitor
Tested at: 10 µM
`CC(C)=CCc1cc2c(cc1O)oc(=O)c1c3ccc(O)cc3oc21` gave an inhibition of 1%.
For `O=c1cc(-c2ccc(O)cc2)oc2cc(O[C@@H]3O[C@H](CO)[C@@H](O)[C@H](O)[C@H]3O[C@@H]3OC[C@](O)(CO)[C@H]3O)cc(O)c12`, the inhibition was 5%.
With `C[C@@H](O)[C@H]1C(=O)N2C(C(=O)O)=C([C@H]3CCCO3)S[C@H]12` the inhibition was -8%.
`CCc1oc2ccccc2c1C(=O)c1cc(Br)c(O)c(Br)c1` has an inhibition of -12%.
With `Oc1cc(O)c(Cl)cn1` the inhibition was -5%.
`COC(=O)N[C@H](C(=O)N[C@@H](Cc1ccccc1)[C@@H](O)CN(Cc1ccc(-c2ccccn2)cc1)NC(=O)[C@@H](NC(=O)OC)C(C)(C)C)C(C)(C)C` has an inhibition of 2%.
With `CCCCCCCCCCCCCCCC[N+](C)(C)Cc1ccccc1` the inhibition was -10%.
With `C[C@@H]1O[C@@H](O[C@H]2[C@H](OC(=O)[C@]34CCC(C)(C)C[C@H]3C3=CC[C@@H]5[C@@]6(C)C[C@H](O)[C@H](O[C@@H]7O[C@H](CO)[C@@H](O)[C@H](O)[C@H]7O)[C@](CO)(C(=O)O)[C@@H]6CC[C@@]5(C)[C@]3(C)C[C@H]4O)OC[C@H](O)[C@@H]2O)[C@H](O)[C@H](O)[C@H]1O[C@@H]1OC[C@@H](O)[C@H](O[C@@H]2OC[C@](O)(CO)[C@H]2O)[C@H]1O` the inhibition was -5%.
The inhibition of `O=C(O[C@@H]1Cc2c(O)cc(O)cc2O[C@H]1c1ccc(O)c(O)c1)c1cc(O)c(O)c(O)c1` is reported as -46%.
The inhibition of `Cc1ccccc1N1C(=O)c2cc(S(N)(=O)=O)c(Cl)cc2NC1C` (stereo not shown) is reported as -8%.
For `CC(NCCC(c1ccccc1)c1ccccc1)c1ccccc1` (stereo not shown), the inhibition was 14%.
With `O=P(O)(O)OC(CO)CO` the inhibition was 23%.
`COc1ccc(C[C@@H]2c3cc(Oc4cc(C[C@@H]5c6cc(OC)c(OC)cc6CCN5C)ccc4O)c(OC)cc3CCN2C)cc1` has an inhibition of -25%.
For `CC(=O)c1ccc(O)cc1`, the inhibition was -9%.
The inhibition of `CC1=CCC(O)(C(C)C)CC1` (stereo not shown) is reported as 41%.
`O=C(C1CCCCC1)N1CC(=O)N2CCc3ccccc3C2C1` (stereo not shown) gave an inhibition of -3%.
The inhibition of `CC1(C)[C@H](OC(=O)c2ccccc2)CC[C@]2(C)C3=CC[C@@]4(C)[C@@H]5C[C@](C)(COC(=O)c6ccccc6)CC[C@]5(C)CC[C@]4(C)C3=CC[C@@H]12` is reported as -16%.

Some of these lines once more (set 4):
`CC(C)=CCc1cc2c(cc1O)oc(=O)c1c3ccc(O)cc3oc21` gave an inhibition of 1%.
For `O=c1cc(-c2ccc(O)cc2)oc2cc(O[C@@H]3O[C@H](CO)[C@@H](O)[C@H](O)[C@H]3O[C@@H]3OC[C@](O)(CO)[C@H]3O)cc(O)c12`, the inhibition was 5%.
With `C[C@@H](O)[C@H]1C(=O)N2C(C(=O)O)=C([C@H]3CCCO3)S[C@H]12` the inhibition was -8%.
`CCc1oc2ccccc2c1C(=O)c1cc(Br)c(O)c(Br)c1` has an inhibition of -12%.
With `Oc1cc(O)c(Cl)cn1` the inhibition was -5%.
`COC(=O)N[C@H](C(=O)N[C@@H](Cc1ccccc1)[C@@H](O)CN(Cc1ccc(-c2ccccn2)cc1)NC(=O)[C@@H](NC(=O)OC)C(C)(C)C)C(C)(C)C` has an inhibition of 2%.
